Results pooled from the literature.
Compare with care: the assays were run in different laboratories. Numbers after ± are the reported error.
Target: Mitogen-activated protein kinase kinase kinase 11 (MAP3K11, Homo sapiens, UniProt Q16584)
UniProt Q16584, sequence (whole entry, looked up): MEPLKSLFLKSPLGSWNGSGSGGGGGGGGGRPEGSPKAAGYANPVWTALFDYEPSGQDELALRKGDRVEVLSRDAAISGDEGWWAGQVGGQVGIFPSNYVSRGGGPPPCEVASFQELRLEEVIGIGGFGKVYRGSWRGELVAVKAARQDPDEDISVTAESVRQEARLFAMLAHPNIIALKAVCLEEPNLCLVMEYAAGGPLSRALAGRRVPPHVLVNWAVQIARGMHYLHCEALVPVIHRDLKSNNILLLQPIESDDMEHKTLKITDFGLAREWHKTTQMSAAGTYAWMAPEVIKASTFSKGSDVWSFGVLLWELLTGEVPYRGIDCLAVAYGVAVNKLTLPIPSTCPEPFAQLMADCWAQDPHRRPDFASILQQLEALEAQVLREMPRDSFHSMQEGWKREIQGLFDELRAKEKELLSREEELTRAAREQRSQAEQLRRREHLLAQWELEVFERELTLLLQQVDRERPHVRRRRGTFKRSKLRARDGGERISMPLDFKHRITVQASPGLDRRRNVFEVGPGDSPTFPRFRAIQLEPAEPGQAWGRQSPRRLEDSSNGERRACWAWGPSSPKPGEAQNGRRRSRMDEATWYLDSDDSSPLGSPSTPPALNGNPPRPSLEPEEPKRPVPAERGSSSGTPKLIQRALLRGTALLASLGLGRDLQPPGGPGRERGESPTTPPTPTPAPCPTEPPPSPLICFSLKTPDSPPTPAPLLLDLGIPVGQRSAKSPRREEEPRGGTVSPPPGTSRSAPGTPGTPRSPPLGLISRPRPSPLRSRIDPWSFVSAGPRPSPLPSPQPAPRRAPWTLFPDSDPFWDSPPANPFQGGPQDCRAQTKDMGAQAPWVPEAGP

SMILES | test | system | setting | scale | endpoint | value
C=CC(=O)N1CCC(COCC(=O)N2CCN(c3nc(-c4cnc(N)nc4C(F)F)nc(N4CCOC[C@@H]4C)n3)CC2)CC1 | KINOMEscan | – | 1 µM | reference: DMSO control | remaining binding | 90%
C1=C/COCc2cc(ccc2OCCN2CCCC2)Nc2nccc(n2)-c2cccc(c2)COC/1 | – | – | concentration not given, gene name MLK3 | – | percent of control | 100%
O=C1NC(=O)/C(=C/c2ccc(-c3ccc(F)cc3O)o2)S1 | enzyme activity | – | 10 µM | – | remaining activity | 32%
C=CC(=O)N1CCC[C@@H](n2nc(-c3ccc(Oc4ccccc4)cc3)c3c(N)ncnc32)C1 | kinase activity, inhibitor, HotSpot radiometric | – | 100 nM, together with: ATP 10 µM | – | remaining activity | 89.1 ± 0.6%
C=CC(=O)N1CCC(C(=O)NCC(=O)N2CCN(c3nc(-c4cnc(N)nc4C(F)F)nc(N4CCOCC4)n3)CC2)CC1 | KINOMEscan | – | 1 µM | – | remaining binding | 79%
C[C@@H](c1ccc(-n2cnc3c(N)ncnc32)cc1)N1CCc2nn(C)c(Cc3ccccc3)c2C1=O | KINOMEscan | – | 0.1 µM | reference: DMSO control | remaining binding | 100%
COc1ccc(F)cc1C(=O)NCc1ccc(-c2nn([C@@H](C)C(F)(F)F)c(N)c2C(N)=O)cc1 | kinase activity, inhibitor, HotSpot radiometric | – | 1000 nM, together with: ATP at Km | – | remaining activity | 91.4 ± 1.6%
COc1cc(N2CCN(C)CC2)ccc1Nc1nc(N)n(C(=S)NCc2c(Cl)cccc2Cl)n1 | enzyme activity | – | 10 µM | reference: control | remaining activity | 6.3%
CC#CC(=O)N1CCC[C@H]1c1nc(-c2ccc(C(=O)Nc3ccccn3)cc2)c2c(N)nccn12 | kinase activity, inhibitor, HotSpot radiometric | – | 100 nM, together with: ATP 10 µM | – | remaining activity | 100 ± 2.7%
CC[C@@H]1[C@H](F)C(=O)N[C@@H]1COc1nccc2cc(C(N)=O)c(OC)cc12 | ATP-site probe binding, ActivX profiling, measured: MLK3 | THP-1 cell lysate | 0.04 mM, Lys1 site | – | inhibition | -0.9%
O=C(NC1CCC1)c1ccc2nc(-c3cccc(NS(=O)(=O)NCCN4CCCCC4)c3)cn2c1 | enzyme activity | – | 10 µM | – | remaining activity | 100%

Some of these lines once more:
SMILES | test | system | setting | scale | endpoint | value
CC#CC(=O)N1CCC[C@H]1c1nc(-c2ccc(C(=O)Nc3ccccn3)cc2)c2c(N)nccn12 | kinase activity, inhibitor, HotSpot radiometric | – | 100 nM, together with: ATP 10 µM | – | remaining activity | 100 ± 2.7%
COc1cc(N2CCN(C)CC2)ccc1Nc1nc(N)n(C(=S)NCc2c(Cl)cccc2Cl)n1 | enzyme activity | – | 10 µM | reference: control | remaining activity | 6.3%
